{"data": "Results gathered from unrelated publications", "note": "Protocols differ between the studies behind these lines. Values joined by “and” are separate records of one study, mostly repeats; a detail may differ. ± marks the error that the study gave.", "UniProt P06276, sequence (whole entry, looked up)": "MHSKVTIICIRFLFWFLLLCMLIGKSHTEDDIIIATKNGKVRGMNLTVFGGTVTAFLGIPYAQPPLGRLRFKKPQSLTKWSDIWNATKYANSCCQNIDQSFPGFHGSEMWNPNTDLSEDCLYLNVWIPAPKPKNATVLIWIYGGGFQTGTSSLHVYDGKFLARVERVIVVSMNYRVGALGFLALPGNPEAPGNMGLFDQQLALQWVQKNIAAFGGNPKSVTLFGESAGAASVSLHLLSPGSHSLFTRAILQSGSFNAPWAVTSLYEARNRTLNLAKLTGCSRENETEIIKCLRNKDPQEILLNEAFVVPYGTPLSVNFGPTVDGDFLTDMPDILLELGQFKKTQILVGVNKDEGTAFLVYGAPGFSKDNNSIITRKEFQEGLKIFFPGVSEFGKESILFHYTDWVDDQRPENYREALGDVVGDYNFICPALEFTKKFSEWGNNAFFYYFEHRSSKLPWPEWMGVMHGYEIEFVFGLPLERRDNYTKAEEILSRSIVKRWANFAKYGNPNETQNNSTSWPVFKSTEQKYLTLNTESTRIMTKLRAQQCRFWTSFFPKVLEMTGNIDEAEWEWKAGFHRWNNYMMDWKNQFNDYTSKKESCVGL", "UniProt Q007T0, sequence (whole entry, looked up)": "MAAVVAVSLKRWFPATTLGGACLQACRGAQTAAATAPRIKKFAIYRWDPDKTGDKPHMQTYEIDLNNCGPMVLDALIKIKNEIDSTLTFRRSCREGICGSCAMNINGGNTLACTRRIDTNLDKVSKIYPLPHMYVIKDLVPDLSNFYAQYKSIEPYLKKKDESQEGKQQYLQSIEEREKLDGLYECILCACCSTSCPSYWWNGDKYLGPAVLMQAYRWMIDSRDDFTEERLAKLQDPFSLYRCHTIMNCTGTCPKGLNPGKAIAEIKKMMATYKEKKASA", "UniProt A5GZW8, sequence (whole entry, looked up)": "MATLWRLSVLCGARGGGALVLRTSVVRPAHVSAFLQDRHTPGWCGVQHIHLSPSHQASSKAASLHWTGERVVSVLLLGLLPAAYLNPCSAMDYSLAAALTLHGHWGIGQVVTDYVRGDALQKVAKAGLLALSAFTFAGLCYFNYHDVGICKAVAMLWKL", "UniProt D0VWV4, sequence (whole entry, looked up)": "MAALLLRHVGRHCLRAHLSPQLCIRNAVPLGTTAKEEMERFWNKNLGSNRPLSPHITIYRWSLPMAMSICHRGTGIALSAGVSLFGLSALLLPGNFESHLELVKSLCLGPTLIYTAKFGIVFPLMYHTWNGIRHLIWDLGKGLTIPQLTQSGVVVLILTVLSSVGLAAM", "UniProt Q00975, sequence (whole entry, looked up)": "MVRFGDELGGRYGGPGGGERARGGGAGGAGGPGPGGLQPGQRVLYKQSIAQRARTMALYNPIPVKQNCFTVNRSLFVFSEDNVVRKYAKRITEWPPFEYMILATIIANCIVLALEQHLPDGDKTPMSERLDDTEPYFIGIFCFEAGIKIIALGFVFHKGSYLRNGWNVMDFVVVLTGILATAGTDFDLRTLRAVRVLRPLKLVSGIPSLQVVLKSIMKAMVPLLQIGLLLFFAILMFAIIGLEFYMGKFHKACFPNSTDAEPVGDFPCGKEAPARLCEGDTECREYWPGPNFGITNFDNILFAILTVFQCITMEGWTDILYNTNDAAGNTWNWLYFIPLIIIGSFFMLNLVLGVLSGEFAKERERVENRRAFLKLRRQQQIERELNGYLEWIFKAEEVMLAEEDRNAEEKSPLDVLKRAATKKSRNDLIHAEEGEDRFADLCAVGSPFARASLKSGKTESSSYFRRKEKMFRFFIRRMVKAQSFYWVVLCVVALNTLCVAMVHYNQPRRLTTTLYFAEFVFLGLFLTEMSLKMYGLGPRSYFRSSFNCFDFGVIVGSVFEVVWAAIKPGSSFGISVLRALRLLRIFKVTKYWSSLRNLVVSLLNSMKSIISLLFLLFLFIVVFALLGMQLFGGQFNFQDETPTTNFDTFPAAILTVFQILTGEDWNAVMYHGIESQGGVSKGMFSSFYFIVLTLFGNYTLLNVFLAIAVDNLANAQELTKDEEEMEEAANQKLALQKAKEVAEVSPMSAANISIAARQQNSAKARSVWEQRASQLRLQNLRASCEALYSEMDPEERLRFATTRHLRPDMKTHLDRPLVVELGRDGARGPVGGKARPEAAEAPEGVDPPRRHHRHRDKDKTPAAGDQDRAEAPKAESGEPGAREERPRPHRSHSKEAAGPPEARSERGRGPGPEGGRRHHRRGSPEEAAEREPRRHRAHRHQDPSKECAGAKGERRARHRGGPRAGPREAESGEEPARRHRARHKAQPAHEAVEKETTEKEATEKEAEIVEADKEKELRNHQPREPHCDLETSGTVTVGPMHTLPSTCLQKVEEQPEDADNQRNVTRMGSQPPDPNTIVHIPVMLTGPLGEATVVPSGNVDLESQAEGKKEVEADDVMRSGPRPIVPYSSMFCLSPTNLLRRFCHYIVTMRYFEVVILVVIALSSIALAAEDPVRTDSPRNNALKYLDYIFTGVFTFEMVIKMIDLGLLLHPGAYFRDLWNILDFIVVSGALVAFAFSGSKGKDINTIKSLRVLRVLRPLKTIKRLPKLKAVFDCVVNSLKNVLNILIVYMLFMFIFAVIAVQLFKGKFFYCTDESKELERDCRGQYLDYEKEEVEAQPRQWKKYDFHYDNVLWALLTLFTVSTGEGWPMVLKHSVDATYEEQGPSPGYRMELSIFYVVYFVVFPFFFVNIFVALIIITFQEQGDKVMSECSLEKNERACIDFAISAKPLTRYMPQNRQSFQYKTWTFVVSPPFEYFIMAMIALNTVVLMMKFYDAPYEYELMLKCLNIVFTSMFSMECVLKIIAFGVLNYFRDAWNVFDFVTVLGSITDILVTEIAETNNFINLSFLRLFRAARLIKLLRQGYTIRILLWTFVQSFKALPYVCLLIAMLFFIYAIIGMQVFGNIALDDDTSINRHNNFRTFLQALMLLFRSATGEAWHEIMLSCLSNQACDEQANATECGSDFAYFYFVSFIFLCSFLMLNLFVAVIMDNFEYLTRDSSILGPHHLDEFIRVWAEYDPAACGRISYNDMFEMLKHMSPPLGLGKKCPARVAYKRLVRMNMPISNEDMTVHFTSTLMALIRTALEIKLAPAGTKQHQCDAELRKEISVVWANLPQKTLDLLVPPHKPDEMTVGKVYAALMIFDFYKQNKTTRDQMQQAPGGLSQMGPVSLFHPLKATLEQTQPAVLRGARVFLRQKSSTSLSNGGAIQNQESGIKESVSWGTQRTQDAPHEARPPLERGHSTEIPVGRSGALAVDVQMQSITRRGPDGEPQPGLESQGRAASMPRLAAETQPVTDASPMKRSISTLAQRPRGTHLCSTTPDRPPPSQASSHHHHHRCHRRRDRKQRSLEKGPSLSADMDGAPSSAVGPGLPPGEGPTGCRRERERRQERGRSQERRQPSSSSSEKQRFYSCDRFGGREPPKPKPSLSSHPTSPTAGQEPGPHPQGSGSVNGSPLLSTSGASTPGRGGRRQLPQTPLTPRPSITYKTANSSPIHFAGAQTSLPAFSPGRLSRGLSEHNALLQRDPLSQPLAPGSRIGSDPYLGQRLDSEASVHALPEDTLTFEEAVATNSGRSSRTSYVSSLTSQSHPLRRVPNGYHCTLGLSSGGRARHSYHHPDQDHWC", "UniProt P21980, sequence (whole entry, looked up)": "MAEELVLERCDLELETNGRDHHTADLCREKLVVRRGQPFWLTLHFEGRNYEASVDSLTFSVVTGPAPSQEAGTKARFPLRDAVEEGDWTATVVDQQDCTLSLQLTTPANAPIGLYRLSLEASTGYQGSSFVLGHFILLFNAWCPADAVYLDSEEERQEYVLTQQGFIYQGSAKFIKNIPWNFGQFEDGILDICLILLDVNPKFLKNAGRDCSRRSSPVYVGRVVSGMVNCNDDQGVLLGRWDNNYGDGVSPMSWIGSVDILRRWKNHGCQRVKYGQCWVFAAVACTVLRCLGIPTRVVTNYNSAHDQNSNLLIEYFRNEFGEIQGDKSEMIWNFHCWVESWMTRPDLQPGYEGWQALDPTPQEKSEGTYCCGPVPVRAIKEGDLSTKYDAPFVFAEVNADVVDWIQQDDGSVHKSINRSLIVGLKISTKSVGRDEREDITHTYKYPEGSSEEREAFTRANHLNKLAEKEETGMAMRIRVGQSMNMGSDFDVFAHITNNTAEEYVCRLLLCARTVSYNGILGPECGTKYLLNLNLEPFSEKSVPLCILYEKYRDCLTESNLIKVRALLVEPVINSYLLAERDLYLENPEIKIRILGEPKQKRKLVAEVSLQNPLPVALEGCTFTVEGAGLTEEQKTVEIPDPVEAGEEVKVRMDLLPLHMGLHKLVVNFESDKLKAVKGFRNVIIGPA", "UniProt P15823, sequence (whole entry, looked up)": "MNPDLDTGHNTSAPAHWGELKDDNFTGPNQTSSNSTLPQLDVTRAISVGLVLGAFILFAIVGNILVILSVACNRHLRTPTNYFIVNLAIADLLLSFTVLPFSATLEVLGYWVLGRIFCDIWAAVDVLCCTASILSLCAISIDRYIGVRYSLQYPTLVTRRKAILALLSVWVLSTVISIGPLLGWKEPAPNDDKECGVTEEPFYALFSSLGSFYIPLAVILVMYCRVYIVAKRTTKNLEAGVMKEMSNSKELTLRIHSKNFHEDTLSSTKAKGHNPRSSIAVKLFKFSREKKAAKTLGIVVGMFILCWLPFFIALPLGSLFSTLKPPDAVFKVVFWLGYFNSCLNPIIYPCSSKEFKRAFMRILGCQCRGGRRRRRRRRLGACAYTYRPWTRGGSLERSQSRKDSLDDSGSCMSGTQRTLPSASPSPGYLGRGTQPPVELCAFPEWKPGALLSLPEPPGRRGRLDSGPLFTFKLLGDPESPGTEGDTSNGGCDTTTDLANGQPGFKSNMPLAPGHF", "UniProt P00942, sequence (whole entry, unmodified, looked up)": "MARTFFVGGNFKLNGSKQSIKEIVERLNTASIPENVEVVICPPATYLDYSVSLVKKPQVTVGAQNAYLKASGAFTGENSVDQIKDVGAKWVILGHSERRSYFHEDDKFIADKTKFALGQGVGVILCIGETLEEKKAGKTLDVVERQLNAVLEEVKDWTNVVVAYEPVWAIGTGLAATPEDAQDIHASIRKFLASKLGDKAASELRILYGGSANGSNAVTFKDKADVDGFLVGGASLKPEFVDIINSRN"}
{"Compound": "C=C(CN(C(=O)c1c(C(F)F)nn(C)c1F)C1CC1)c1ccc(Cl)cc1Cl", "target or system": "SDHD/SDHC/SDHB (Sus scrofa, UniProt A5GZW8+D0VWV4+Q007T0)", "assay": "enzyme activity, inhibitor, DCIP reduction", "system": "pig", "setting": "0.4 µM, together with: DCIP 40 µM", "endpoint": "reaction velocity", "result": "0.00687 µM/s and 0.00556 µM/s and 0.00571 µM/s"}
{"Compound": "COc1cc(Nc2ncc(F)c(Nc3ccc4c(n3)NC(=O)C(C)(C)O4)n2)cc(OC)c1OC", "target or system": "LRRK2 (Homo sapiens, UniProt Q5S007)", "assay": "KINOMEscan", "setting": "10 µM", "endpoint": "inhibition", "result": "97%"}
{"Compound": "CN(N=O)c1ccc(O)c(O)c1", "target or system": "TGM2 (Homo sapiens, UniProt P21980)", "assay": "transglutaminase activity, inhibitor", "setting": "together with: 0.02% Triton X-100", "how to read": "baseline: with over without Triton X-100", "endpoint": "IC50 fold increase", "result": "1.3 to 2.5 fold"}
{"Compound": "CN1CCC(=C2c3ccccc3CC(=O)c3sccc32)CC1", "target or system": "Plasmodium falciparum", "system": "W2", "endpoint": "IC50", "result": "794 nM"}
{"Compound": "CO/N=C(\\C(=O)N[C@@H]1C(=O)N2C(C(=O)O)=C(COC(C)=O)CS[C@H]12)c1csc(N)n1", "target or system": "Penicillin-binding protein 2B (Streptococcus pneumoniae, UniProt P0A3M6)", "assay": "inhibitor", "endpoint": "kinact/KI", "result": "5.4 ± 1.3 M⁻¹ s⁻¹"}
{"Compound": "CN(CCN1CCC(OC(=O)Nc2ccccc2-c2ccccc2)CC1)C(=O)c1ccc(CN2CCC(C(N)=O)CC2)cc1", "target or system": "Na+/K+ ATPase", "assay": "enzyme activity", "setting": "1 µM", "endpoint": "inhibition", "result": "1%"}
{"Compound": "CCN(CC)CCOC(=O)C(Cc1cccc2ccccc12)CC1CCCO1 (stereo not drawn)", "target or system": "Cholinesterase (BCHE, Homo sapiens, UniProt P06276)", "setting": "concentration not given, Triton", "endpoint": "efficacy", "result": "-95.3 ± 3.57%"}
{"Compound": "CC(CCc1ccccc1)NC(C)C(O)c1ccc(O)cc1 (stereo not drawn)", "target or system": "Plasmodium falciparum", "system": "GB4", "endpoint": "IC50", "result": "3160 nM"}
{"Compound": "O=C(Nc1cnccc1Cl)N1CCN(Cc2ccc3c(c2)OC(F)(F)O3)CC1", "target or system": "Adra1b (Rattus norvegicus, UniProt P15823)", "assay": "binding", "setting": "10 µM, together with: [3H]prazosin", "endpoint": "inhibition", "result": "3%"}
{"Compound": "C[C@H](CCC(=O)N[C@@H](CCC(=O)O[C@H]1C[C@H](n2cc(F)c(=O)[nH]c2=O)O[C@@H]1CO)C(=O)O)[C@H]1CC[C@H]2[C@@H]3[C@H](O)C[C@@H]4C[C@H](O)CC[C@]4(C)[C@H]3CC[C@]12C", "target or system": "SLC10A1 (Homo sapiens, UniProt Q14973)", "assay": "uptake, substrate", "system": "HEK293 expressing NTCP", "how to read": "baseline: taurocholate", "endpoint": "normalised Vmax", "result": 0.0187}
{"Compound": "Nc1ccn([C@H]2C[C@H](O)[C@@H](COP(=O)(O)OP(=O)(O)OP(=O)(O)O)O2)c(=O)n1", "target or system": "Gag-Pol polyprotein, reverse transcriptase (gag-pol, Human immunodeficiency virus type 1 group M subtype B, UniProt P04585, K653A)", "assay": "nucleotide misincorporation, steady-state kinetics", "setting": "K66A RT, together with: matched template/primer, template T", "endpoint": "kcat", "result": "0.0298 ± 0.0108 s⁻¹"}
{"Compound": "Nc1cnn(-c2ccccc2)c(=O)c1Cl", "target or system": "PPARG (Homo sapiens, UniProt P37231)", "assay": "reporter gene, agonist, β-lactamase reporter", "system": "HEK293-H cells", "setting": "nominal concentration", "how to read": "baseline: cytotoxicity IC10 over EC10", "endpoint": "specificity ratio", "result": 36.1}
{"Compound": "O=C(O)COP(=O)(O)O", "target or system": "TPI1 (Saccharomyces cerevisiae, UniProt P00942, Y208A)", "assay": "enzyme activity, competitive inhibitor, GPDH/NADH-coupled", "setting": "pH 8.3, 25 °C, ionic strength 0.1 NaCl, together with: glyceraldehyde 3-phosphate substrate", "how to read": "baseline: mutant over wild type", "endpoint": "Ki ratio", "result": 40}
{"Compound": "O=C1CN(C(=O)CCn2ccnc2)CC(O)CN1CCc1ccccc1 (stereo not drawn)", "target or system": "Cholinesterase (BCHE, Homo sapiens, UniProt P06276)", "assay": "inhibitor", "setting": "1.0 µM", "endpoint": "apparent Vmax", "result": "0.28 ± 0.03 µM/min"}
{"Compound": "O=C(CN1CCN(Cc2ccc3c(c2)OCO3)CC1)N1c2ccccc2Sc2ccccc21", "target or system": "Cholinesterase (BCHE, Homo sapiens, UniProt P06276)", "setting": "concentration not given, Triton", "endpoint": "efficacy", "result": "-91.9 ± 4.05%"}
{"Compound": "COc1ccc(N2C(=O)N(c3c(C)cccc3Cl)Cc3cnc(Nc4ccc(C5CCN(C)CC5)cc4OC)nc32)nc1", "target or system": "PDGFRB (Homo sapiens, UniProt P09619)", "assay": "kinase activity, inhibitor", "setting": "0.5 µM, kinase PDGFR-BETA", "endpoint": "inhibition", "result": "100%"}
{"Compound": "CCN(C)C(=O)Oc1ccc(CCC(=O)N(CC)CC)cc1OC", "target or system": "Cholinesterase (BCHE, Equus caballus, UniProt P81908)", "assay": "Ellman", "system": "equine serum BuChE", "how to read": "baseline: AChE IC50 over BuChE IC50", "endpoint": "selectivity ratio", "result": 1.1}
{"Compound": "Nc1ncnc2c1ncn2[C@@H]1O[C@H](COP(=O)(O)OP(=O)(O)OP(=O)(O)O)[C@@H](O)[C@H]1O", "target or system": "Cell cycle histidine kinase CckA, cytoplasmic region (Caulobacter vibrioides, UniProt Q9X688)", "assay": "binding, global kinetic model fit of phosphorylation", "endpoint": "off-rate (kr1)", "result": "0.46 s⁻¹"}
{"Compound": "C=C1[C@@H]2CC[C@@]3(C)[C@H](c4ccoc4)OC(=O)C[C@]13O[C@H]1CC(=O)C(C)(C)[C@H](CC(=O)OC)[C@]12C", "target or system": "Cholinesterase (BCHE, Homo sapiens, UniProt P06276)", "setting": "concentration not given, Triton", "endpoint": "efficacy", "result": "-73.1 ± 16.6%"}
{"Compound": "CC[C@@H](C)[C@@H](NC(=O)[C@@H](Cc1ccc(O)cc1)NC(=O)[C@H]1CCCN1C(=O)[C@@H](CCCNC(=N)N)NC(=O)[C@H](N)Cc1c[nH]cn1)C(=O)N[C@H](C)C(=O)N[C@H](Cc1c[nH]cn1)C(=O)N[C@H](CCCNC(=N)N)C(=O)N[C@H](CCCCNC(=O)c1cccc(S(=O)(=O)F)c1)C(=O)N[C@H](Cc1ccc(O)cc1)C(=O)N[C@H](CO)C(=O)N[C@H](Cc1ccccc1)C(N)=O", "target or system": "Transferrin receptor protein 1 (Tfrc, Mus musculus, UniProt Q62351)", "assay": "flow cytometry", "system": "RAW264.7", "setting": "24 h, pH 6, replicate 2, unit not given", "how to read": "baseline: 0 h", "endpoint": "surface TFRC expression", "result": 0.827}
{"Compound": "Clc1ccc(-c2ccccc2Cl)cc1", "target or system": "Androgen receptor (AR, Homo sapiens, UniProt P10275)", "assay": "reporter gene, antagonist", "setting": "40 µM, together with: DHT 2 nM", "how to read": "baseline: DHT 2 nM", "endpoint": "maximum activity", "result": "18%"}
{"Compound": "CN(C(=O)n1cnc(-c2ccc[n+]([O-])c2)c1)C1CCCCC1", "target or system": "GABAA receptor chloride channel, rat", "assay": "binding", "setting": "50 µM, together with: [3H]TBOB", "endpoint": "inhibition", "result": "29%"}
{"Compound": "CCOC(=O)COc1ccc2c(=O)c3ccccc3oc2c1", "target or system": "ache (Electrophorus electricus, UniProt O42275)", "assay": "enzyme activity", "setting": "3.36 µM, together with: substrate 3.45 mM", "how to read": "higher = faster reaction", "endpoint": "reaction velocity", "result": "0.0024 a.u."}
{"Compound": "C[C@H]1CN(c2n[nH]c3nc(N[C@H]4CC[C@H](NS(=O)(=O)CCC(F)(F)F)CC4)ncc23)CCO1", "target or system": "MICOS complex subunit MIC60 (Homo sapiens, UniProt Q16891)", "assay": "Kinobeads competition, measured: IMMT", "setting": "0.16 µM, unit not given", "how to read": "baseline: vehicle", "endpoint": "remaining binding", "result": 0.95}
{"Compound": "CN1CCN(c2cc(-c3ccncc3)c(-c3ccc4ccccc4c3)nn2)CC1", "target or system": "HCRTR2 (Homo sapiens, UniProt O43614)", "assay": "agonist, FLIPR calcium", "setting": "12.5 µM", "endpoint": "activation", "result": "-3%"}
{"Compound": "CN1CCc2[nH]c3ccccc3c2CC1.O=C(O)/C=C/C(=O)O", "target or system": "Voltage-dependent N-type calcium channel subunit alpha-1B (Homo sapiens, UniProt Q00975)", "assay": "barium current, inhibitor, whole-cell patch clamp", "system": "HEK293T", "endpoint": "Hill coefficient", "result": 1.1}
{"Compound": "[2H]c1c([2H])c([C@]2([2H])CCCN2C(=O)C(C)(C)Oc2ccc3cn[nH]c3c2)c([2H])c([2H])c1C([2H])([2H])[2H]", "target or system": "CAMK2A (Homo sapiens, UniProt Q9UQM7)", "assay": "KINOMEscan", "setting": "1 µM", "how to read": "baseline: DMSO control", "endpoint": "remaining binding", "result": "66%"}
{"Compound": "COc1cc(N)c(Cl)cc1C(=O)NC1CN2CCC1CC2 (stereo not drawn)", "target or system": "GPR132 (Homo sapiens, UniProt Q9UNW8)", "assay": "β-arrestin recruitment, TANGO luminescence", "setting": "concentration not given", "how to read": "baseline: basal luminescence", "endpoint": "log2 fold change", "result": 0.034}
{"Compound": "O=C(c1ccc(Cl)cc1)N1CCN2C(=O)N(OC(=O)N3CCOc4ccccc43)C(=O)C2C1 (stereo not drawn)", "target or system": "Cholinesterase (BCHE, Homo sapiens, UniProt P06276)", "assay": "enzyme activity, inhibitor, MS-based ABPP", "system": "SW-620 conditioned medium", "setting": "10 µM, 1 h, 37 °C", "how to read": "baseline: compound over DMSO, lower = stronger inhibition", "endpoint": "median ratio", "result": 1.18}
{"Compound": "O=C(Nc1cccnn1)N1CCC(=Cc2cccc(Oc3ccc(C(F)(F)F)cn3)c2)CC1", "target or system": "BDKRB1 (Homo sapiens, UniProt P46663)", "assay": "binding", "setting": "10 µM, together with: [3H][des-Arg10]kallidin", "endpoint": "inhibition", "result": "13%"}
{"note": "For quick reference, copied from above:"}
{"Compound": "Nc1ncnc2c1ncn2[C@@H]1O[C@H](COP(=O)(O)OP(=O)(O)OP(=O)(O)O)[C@@H](O)[C@H]1O", "target or system": "Cell cycle histidine kinase CckA, cytoplasmic region (Caulobacter vibrioides, UniProt Q9X688)", "assay": "binding, global kinetic model fit of phosphorylation", "endpoint": "off-rate (kr1)", "result": "0.46 s⁻¹"}
{"Compound": "C=C1[C@@H]2CC[C@@]3(C)[C@H](c4ccoc4)OC(=O)C[C@]13O[C@H]1CC(=O)C(C)(C)[C@H](CC(=O)OC)[C@]12C", "target or system": "Cholinesterase (BCHE, Homo sapiens, UniProt P06276)", "setting": "concentration not given, Triton", "endpoint": "efficacy", "result": "-73.1 ± 16.6%"}
{"Compound": "CC[C@@H](C)[C@@H](NC(=O)[C@@H](Cc1ccc(O)cc1)NC(=O)[C@H]1CCCN1C(=O)[C@@H](CCCNC(=N)N)NC(=O)[C@H](N)Cc1c[nH]cn1)C(=O)N[C@H](C)C(=O)N[C@H](Cc1c[nH]cn1)C(=O)N[C@H](CCCNC(=N)N)C(=O)N[C@H](CCCCNC(=O)c1cccc(S(=O)(=O)F)c1)C(=O)N[C@H](Cc1ccc(O)cc1)C(=O)N[C@H](CO)C(=O)N[C@H](Cc1ccccc1)C(N)=O", "target or system": "Transferrin receptor protein 1 (Tfrc, Mus musculus, UniProt Q62351)", "assay": "flow cytometry", "system": "RAW264.7", "setting": "24 h, pH 6, replicate 2, unit not given", "how to read": "baseline: 0 h", "endpoint": "surface TFRC expression", "result": 0.827}
